{"data": "Published values pooled from the literature", "note": "Parts stem from different laboratories: compare values within a part only.", "sequence of UniProt Q92985 (whole entry, unmodified, looked up)": "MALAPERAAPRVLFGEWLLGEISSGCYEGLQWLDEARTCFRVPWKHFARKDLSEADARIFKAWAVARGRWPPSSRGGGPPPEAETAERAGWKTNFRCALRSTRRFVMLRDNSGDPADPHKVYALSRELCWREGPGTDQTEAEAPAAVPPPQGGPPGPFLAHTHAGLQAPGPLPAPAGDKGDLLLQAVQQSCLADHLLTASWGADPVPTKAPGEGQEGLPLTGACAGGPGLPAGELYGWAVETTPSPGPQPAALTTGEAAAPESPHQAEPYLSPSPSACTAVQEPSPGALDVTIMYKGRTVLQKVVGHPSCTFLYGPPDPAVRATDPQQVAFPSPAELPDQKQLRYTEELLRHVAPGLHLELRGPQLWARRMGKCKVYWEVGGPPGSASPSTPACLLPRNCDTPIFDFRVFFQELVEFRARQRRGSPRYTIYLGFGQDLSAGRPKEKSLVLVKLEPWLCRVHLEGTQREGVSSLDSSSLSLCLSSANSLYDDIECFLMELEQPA"}
{"data": "Set 1", "target": "TATA-box-binding protein 1 (TBP1, Arabidopsis thaliana, UniProt P28147, residues 1-200, full length assumed)", "method": "protein-binding microarray", "form": "double-stranded DNA, one strand shown", "sample": "in vitro", "tested at": "not given", "notes": "k-mer, scored over probes, only values ≥0.25", "reading": "higher = stronger binding", "Residues (chain)": "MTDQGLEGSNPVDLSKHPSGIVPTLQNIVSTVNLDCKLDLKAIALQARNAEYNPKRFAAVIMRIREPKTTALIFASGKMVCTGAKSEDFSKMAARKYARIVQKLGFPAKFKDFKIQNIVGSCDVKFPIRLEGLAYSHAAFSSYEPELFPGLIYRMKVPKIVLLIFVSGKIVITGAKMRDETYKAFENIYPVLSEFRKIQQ"}
{"Oligonucleotide": "ATAAAGG", "E-score": 0.429}
{"Oligonucleotide": "CGATAAA", "E-score": 0.302}
{"Oligonucleotide": "GCTATAA", "E-score": 0.343}
{"Oligonucleotide": "ATATACA", "E-score": 0.416}
{"data": "Set 2", "target": "Histone acetyltransferase KAT6A, both winged helices, GST fusion (KAT6A, Homo sapiens, UniProt Q92794, residues 1-181)", "method": "protein binding microarray", "form": "double-stranded DNA, one strand shown", "sample": "in vitro", "tested at": "not given", "notes": "8-mer, flanks averaged, mean of 2 arrays, mostly near background", "reference": "not given", "reading": "higher = stronger binding", "Residues (chain)": "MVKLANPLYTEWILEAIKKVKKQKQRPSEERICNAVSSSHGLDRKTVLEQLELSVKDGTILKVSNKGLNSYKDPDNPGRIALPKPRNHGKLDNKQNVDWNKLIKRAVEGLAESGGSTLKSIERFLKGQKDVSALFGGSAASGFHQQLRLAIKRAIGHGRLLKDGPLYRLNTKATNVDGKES"}
{"Oligonucleotide": "CAACCAGG", "E-score": -0.0991}
{"Oligonucleotide": "TATTTTGA", "E-score": -0.208}
{"Oligonucleotide": "CCATGTCA", "E-score": -0.0791}
{"data": "Further values, each from its own experiment"}
{"Molecule": "GCCTAGCACTTCGATTTCAGACTGGATTAGTGCTAGGTCTTGATTCGCTTGACGCTGCTG", "target": "Interferon regulatory factor 7, full length, phosphomimetic (IRF7, Homo sapiens, UniProt Q92985, residues 1-503, S471D/S472D/S475D/S476D/S477D/S483D/S484D/S487D)", "test": "protein-binding microarray", "test system": "double-stranded DNA, one strand shown, in vitro", "setting": "2200 nM top, 60-bp whole probe, with: salmon DNA 0.4 mg/ml", "how to read": "reference: random background probes, higher = stronger binding", "measurement": "fitted relative affinity", "value": "1.36 z-score"}
{"Molecule": "PhoQ, residues 284 288 289 292 302 303 SLCLSL", "target": "PhoP, residues 12 14 15 18 19 NMSFL (Escherichia coli, UniProt P23836)", "test": "Sort-seq, measured: YFP reporter", "test system": "E. coli", "setting": "PhoQ-PhoP variant library, with: 10 µM Mg2+", "how to read": "reference: high Mg2+ state, higher = stronger signaling", "measurement": "fold induction", "value": 1.94}
{"note": "Excerpt of the above (set 2):"}
{"Oligonucleotide": "TATTTTGA", "E-score": -0.208}
